Measurements from different studies.
Protocols differ between the studies behind these lines.

For `UAGGAU`, “6-mer enrichment (R)” read 0.901 (TAR DNA-binding protein 43, full length, His tag (TARDBP, Homo sapiens, UniProt Q13148, residues 1-414); RNA Bind-n-Seq; RNA, in vitro; 20 nM, 6-mer, flanks averaged, single round, added: 150 mM LiCl; baseline: input library, higher = stronger binding).
`CCCATAAC` has an E-score of -0.185 (Histone acetyltransferase KAT6A, both winged helices, GST fusion (KAT6A, Homo sapiens, UniProt Q92794, residues 1-181); protein binding microarray; double-stranded DNA, one strand shown, in vitro; not given, 8-mer, flanks averaged, mean of 2 arrays, mostly near background; baseline: not given, higher = stronger binding).
With `CAAACTCC` the E-score was -0.0402 (Sal-like protein 4, full length isoform A (SALL4, Homo sapiens, UniProt Q9UJQ4, residues 1-1053); universal PBM; double-stranded DNA, one strand shown, in vitro; 600 nM, 8-mer, flanks averaged, mean of replicates; higher = stronger binding).
`TATCACCA` gave an E-score of -0.0116 (Histone acetyltransferase KAT6A, winged helix 2, GST fusion (KAT6A, Homo sapiens, UniProt Q92794, residues 85-181); protein binding microarray; double-stranded DNA, one strand shown, in vitro; not given, 8-mer, flanks averaged, mean of 2 arrays, mostly near background; baseline: not given, higher = stronger binding).
`GAAGGATC` has an E-score of -0.144 (Sal-like protein 4, full length isoform B (SALL4, Homo sapiens, UniProt Q9UJQ4-2, residues 1-616); universal PBM; double-stranded DNA, one strand shown, in vitro; not given, 8-mer, flanks averaged, mean of replicates; higher = stronger binding).
`PhoQ, residues 284 288 289 292 302 303 TLASMF` has a fold induction of 1.41 (PhoP, residues 12 14 15 18 19 LHTVL (Escherichia coli, UniProt P23836); Sort-seq, refers to: YFP reporter; E. coli; PhoQ-PhoP variant library, added: 10 µM Mg2+; baseline: high Mg2+ state, higher = stronger signaling).

Excerpt of the above:
`PhoQ, residues 284 288 289 292 302 303 TLASMF` has a fold induction of 1.41 (PhoP, residues 12 14 15 18 19 LHTVL (Escherichia coli, UniProt P23836); Sort-seq, refers to: YFP reporter; E. coli; PhoQ-PhoP variant library, added: 10 µM Mg2+; baseline: high Mg2+ state, higher = stronger signaling).
